Experimental data pooled from the literature.
Protocols differ between the studies behind these lines. ± gives the spread as reported.
Organism: Arabidopsis thaliana

| Structure (SMILES) | test | test system | conditions | scale | measurement | value |
| --- | --- | --- | --- | --- | --- | --- |
| Cc1cccc2c1N(C(=O)n1ccnn1)CC2 |  | kai2 mutant | ambient temperature |  | germination inhibition concentration | > 30 µM |
| CC(C)Oc1cccc(NC(=O)CCCN2C(=O)c3ccccc3C2=O)c1 | reporter protein, refers to: DII-VENUS |  | 50 µM |  | time to complete reporter loss | 40 min |
| CCc1nc(-c2cccc(NC(=O)c3cccc(OC)c3)c2)no1 | root growth | agar plates |  |  | IC50 | 19 µM |
| CCc1cccc2c(C(=O)COC(=O)C34CC5CC(CC(Br)(C5)C3)C4)c[nH]c12 | refers to: primary rosette branches | wild type | 10 µM, 30-day-old plants |  | branch number | increased |
| O=C(Cc1ccc(O)c(O)c1)N(O)Cc1ccc(F)cc1 |  | Col-0, excised stem nodes | 100 µM, with: NAA 1 µM | reference: wild type | advancement of bud outgrowth | 3 days |
| CN1C(=O)C(O)(C(=O)O)Oc2ccccc21 (centres unmarked) |  | Col-0 | 50 µg/mL |  | seed germination | inhibited |
| CN1C[C@H](c2cccc(C(F)(F)F)c2)[C@@H](C(=O)Nc2ccccc2F)C1=O |  | seedlings | 1 µM, 24 h |  | N-carbamoyl-aspartate level | 16.7 ± 2.02 ng/g fresh weight |
| COC1CCC(N(C(=O)C2CCC(C)CC2)c2cc(C3=CCCCC3)sc2C(=O)O)CC1 (centres unmarked) |  | wild type, seedling nuclear fraction | 30 µM, 2 days |  | protein O-fucosylation | no effect |

For quick reference, copied from above:
| Structure (SMILES) | test | test system | conditions | scale | measurement | value |
| --- | --- | --- | --- | --- | --- | --- |
| Cc1cccc2c1N(C(=O)n1ccnn1)CC2 |  | kai2 mutant | ambient temperature |  | germination inhibition concentration | > 30 µM |
